Experimental data pooled from the literature.
Numbered parts are unrelated; each lists some results of a single study.

Study 1
Target: Histamine H2 receptor (HRH2, Homo sapiens, UniProt P25021)
Chain of UniProt P25021 (whole entry, looked up): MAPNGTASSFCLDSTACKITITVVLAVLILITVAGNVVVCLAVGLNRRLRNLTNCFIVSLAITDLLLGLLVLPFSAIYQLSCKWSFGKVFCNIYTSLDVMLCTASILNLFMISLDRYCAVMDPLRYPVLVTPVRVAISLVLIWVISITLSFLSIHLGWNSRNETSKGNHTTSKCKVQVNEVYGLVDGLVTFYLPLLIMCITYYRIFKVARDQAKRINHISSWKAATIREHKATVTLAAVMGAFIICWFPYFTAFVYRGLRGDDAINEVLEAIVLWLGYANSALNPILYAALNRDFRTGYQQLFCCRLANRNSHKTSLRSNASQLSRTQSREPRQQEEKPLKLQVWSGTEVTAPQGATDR
Effect on: binding
Method: radioligand binding
Tested at: 10 µM
For `Cc1cc(-n2nc(Cc3cc(F)cc(C(F)(F)F)c3)nc2C)ccc1C(N)=O`, the inhibition was 6.28%.
With `CC1=C(C#N)[C@@H](c2ccc3[nH]nc(C)c3c2)C(C#N)=C(c2ccc(Cl)cc2)N1` the inhibition was 14.1%.
For `COc1nc2ccc([C@@](O)(c3ccccc3)C3CCN(C(C)=O)CC3)cc2c(Cl)c1Cc1ccc(-n2cccn2)cc1`, the inhibition was -0.99%.
For `CC(=O)N1CCC(c2ccc(C(=O)NC(=N)N)cc2C(F)(F)F)CC1`, the inhibition was -11.2%.

Study 2
Target: TAR DNA-binding protein 43, full length, His tag (TARDBP, Homo sapiens, UniProt Q13148, residues 1-414)
Method: RNA Bind-n-Seq
Molecule type: RNA
Medium: in vitro
Tested at: 20 nM
Setting: 6-mer, flanks averaged, single round
Added: 150 mM KCl
Baseline: input library
Reading: higher = stronger binding
For `UCGAAU`, “6-mer enrichment (R)” read 0.641.
Under “6-mer enrichment (R)”, `GCACAC` is recorded as 0.785.
For `CGAAUA`, “6-mer enrichment (R)” read 0.652.
`CCUAUA` — result for “6-mer enrichment (R)”: 0.602.
For `GGCCAC`, “6-mer enrichment (R)” read 1.1.
`CCACUG`: “6-mer enrichment (R)” 0.71.
`UUUUUA`: “6-mer enrichment (R)” 0.779.
`GGAACC` — result for “6-mer enrichment (R)”: 1.

Study 3
Target: Casein kinase I isoform epsilon (CSNK1E, Homo sapiens, UniProt P49674)
Chain of UniProt P49674 (whole entry, looked up): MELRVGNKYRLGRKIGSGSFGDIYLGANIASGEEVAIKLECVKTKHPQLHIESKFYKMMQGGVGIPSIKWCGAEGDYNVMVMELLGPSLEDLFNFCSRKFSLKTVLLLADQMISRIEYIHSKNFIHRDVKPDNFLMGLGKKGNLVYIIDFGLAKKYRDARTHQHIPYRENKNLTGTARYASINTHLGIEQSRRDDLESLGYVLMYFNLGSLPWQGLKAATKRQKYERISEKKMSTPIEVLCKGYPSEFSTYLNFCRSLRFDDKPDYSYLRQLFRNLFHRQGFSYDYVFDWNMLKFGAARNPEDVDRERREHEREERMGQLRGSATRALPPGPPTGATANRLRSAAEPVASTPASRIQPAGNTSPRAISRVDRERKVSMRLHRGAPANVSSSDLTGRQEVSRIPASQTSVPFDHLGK
Effect on: enzyme activity
Action: inhibitor
Tested at: 0.5 µM
Baseline: control
`O=C(O)c1ccc2c3c1cccc3c(=O)n1c3ccccc3nc21` gave a remaining activity of 96%.
With `COc1ccc(OC)c2c(=S)c3ccccc3[nH]c12` the remaining activity was 90.3%.
The remaining activity of `Nc1ccc2ncnc(NCCc3ccc(Oc4ccccc4)cc3)c2c1` is reported as 148%.

Mixed results
`PhoQ, residues 284 288 289 292 302 303 NLGVHL` gave a fold induction of 7.63 (PhoP, residues 12 14 15 18 19 LQHIR (Escherichia coli, UniProt P23836); Sort-seq, item: YFP reporter; E. coli; PhoQ-PhoP variant library, added: 10 µM Mg2+; baseline: high Mg2+ state, higher = stronger signaling).

Some of these lines once more (study 1):
For `CC(=O)N1CCC(c2ccc(C(=O)NC(=N)N)cc2C(F)(F)F)CC1`, the inhibition was -11.2%.
With `CC1=C(C#N)[C@@H](c2ccc3[nH]nc(C)c3c2)C(C#N)=C(c2ccc(Cl)cc2)N1` the inhibition was 14.1%.
